Measurements pooled from the literature.
A part holds a random share of what one study measured.

Study 1 — method: protein-binding microarray; form: double-stranded DNA, one strand shown; sample: in vitro; concentration: 250 nM; setting: 60-bp whole probe; added: salmon DNA 0.4 mg/ml; relative to: random background probes; direction: higher = stronger binding; measurement: log fluorescence; shared flanks, not repeated: GCCTAGCAC … GTCTTGATTCGCTTGACGCTGCTG
Target: Interferon regulatory factor 7, full length, phosphomimetic (IRF7, Homo sapiens, UniProt Q92985, residues 1-503, S101K/S471D/S472D/S475D/S476D/S477D/S483D/S484D/S487D)
Construct (chain): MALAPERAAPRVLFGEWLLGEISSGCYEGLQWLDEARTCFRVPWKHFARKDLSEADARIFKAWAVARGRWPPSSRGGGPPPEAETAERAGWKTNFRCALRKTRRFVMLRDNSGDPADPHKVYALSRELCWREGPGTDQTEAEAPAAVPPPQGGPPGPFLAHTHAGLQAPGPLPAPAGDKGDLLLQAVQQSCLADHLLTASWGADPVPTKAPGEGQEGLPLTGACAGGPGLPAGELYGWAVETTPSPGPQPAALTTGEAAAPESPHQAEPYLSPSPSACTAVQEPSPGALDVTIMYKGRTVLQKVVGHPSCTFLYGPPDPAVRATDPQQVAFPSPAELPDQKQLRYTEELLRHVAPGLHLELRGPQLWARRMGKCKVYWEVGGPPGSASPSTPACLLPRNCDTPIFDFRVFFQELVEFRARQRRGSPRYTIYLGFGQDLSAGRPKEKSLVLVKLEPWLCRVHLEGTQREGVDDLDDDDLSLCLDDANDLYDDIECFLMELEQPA
TTAGGACTGGGCCTGGGTTAGTGCTAG: 0.156 z-score
GGAAATATTTACCTCTCACGGTGCTAG: 0.292 z-score
TTAGGTATCCTAATGCTTTAGTGCTAG: 0.294 z-score
TTAGGACTGGACACTGGGTTAGTGCTA: -0.528 z-score
GTAGATTCCAGTTTCGATTAGTGCTAG: 10.2 z-score
TTAGGTTTCGGGACTGTGTTAGTGCTA: 3.92 z-score
TTAGGTCTCTTTATCCTTTAGTGCTAG: 0.92 z-score
TTAGGACTGGGGTTTCGCTTAGTGCTA: 3.4 z-score
GACGGACTGGGACTGAGGACGTGCTAG: -0.774 z-score
GACAGTTCCCTTTTCCTGACGTGCTAG: 2.82 z-score
TCAGTTCCTTATTTAAGACTGTGCTAG: 2.39 z-score
GACGGTCTCGGACTGGGGATGTGCTAG: 0.137 z-score
TCAACTTGTCTTTTCATACTGTGCTAG: 0.156 z-score
TTAGGTATCGGGGTTCGGTTAGTGCTA: 0.911 z-score
TGTGGGTTTCGGTGTGGGAGGTGCTAG: 2.22 z-score
TTAGGTATCCTTCTCCTATAGTGCTAG: 0.645 z-score
TCCCCTCTAGGTCTTCTGAAGTGCTAG: -0.256 z-score
CTAGGTTTCGGGTATCGGTTAGTGCTA: 8.02 z-score
TCATGTTTCTAATATTCTACTGTGCTA: 1.12 z-score

Study 2 — method: protein binding microarray; form: double-stranded DNA, one strand shown; sample: in vitro; concentration: not given; relative to: not given; direction: higher = stronger binding; measurement: E-score
Target: Histone acetyltransferase KAT6A, winged helix 2, GST fusion (KAT6A, Homo sapiens, UniProt Q92794, residues 85-181)
Setting: 8-mer, flanks averaged, mean of 2 arrays, mostly near background
Construct (chain): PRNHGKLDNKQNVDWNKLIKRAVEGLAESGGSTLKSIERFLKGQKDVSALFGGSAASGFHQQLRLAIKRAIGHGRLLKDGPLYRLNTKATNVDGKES
CGTATTAC: -0.192
AAAGAAGT: -0.0138
ATCTTCCG: 0.114
AAAACTCG: 0.143
CGTTTATC: -0.0162
ACTGATCT: 0.113
CGTACCTC: -0.103
AATGGCTC: -0.0548
CCGAGCAA: 0.0151
AATGGACA: 0.16
GCGCCCGA: 0.255
CTCATCGC: 0.0484
CAGACGGA: 0.0128
GGATACGA: -0.0735
CGGCCCTC: 0.0952
GGGCGAAC: 0.16
AGTACTAT: 0.0151
CTGTGTAC: -0.0173
CATCTGTC: -0.0903
AAAGCAAG: 0.111

Study 3 — method: universal PBM; form: double-stranded DNA, one strand shown; sample: in vitro; concentration: not given; direction: higher = stronger binding; measurement: E-score
Target: Sal-like protein 4, full length isoform B (SALL4, Homo sapiens, UniProt Q9UJQ4-2, residues 1-616)
Setting: 8-mer, flanks averaged, mean of replicates
Target sequence (chain): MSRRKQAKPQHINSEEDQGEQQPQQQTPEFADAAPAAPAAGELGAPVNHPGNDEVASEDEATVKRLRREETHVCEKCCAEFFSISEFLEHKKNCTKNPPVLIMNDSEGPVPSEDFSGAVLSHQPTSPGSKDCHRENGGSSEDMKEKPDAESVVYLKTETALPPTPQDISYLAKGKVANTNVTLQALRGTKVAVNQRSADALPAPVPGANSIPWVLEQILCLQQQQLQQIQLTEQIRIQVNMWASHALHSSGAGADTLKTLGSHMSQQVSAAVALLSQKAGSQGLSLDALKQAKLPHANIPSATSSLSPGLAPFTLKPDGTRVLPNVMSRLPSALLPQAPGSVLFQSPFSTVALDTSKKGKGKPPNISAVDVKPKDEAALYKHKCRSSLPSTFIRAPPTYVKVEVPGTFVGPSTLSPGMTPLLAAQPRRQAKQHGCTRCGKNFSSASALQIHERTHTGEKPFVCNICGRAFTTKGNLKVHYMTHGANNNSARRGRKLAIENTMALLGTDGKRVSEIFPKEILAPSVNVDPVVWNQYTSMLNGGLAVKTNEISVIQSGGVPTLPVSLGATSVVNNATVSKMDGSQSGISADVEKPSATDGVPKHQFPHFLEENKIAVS
AGAACCTA: -0.0004
AAATCTGT: 0.215
GAGGCATC: -0.205
GTCACGAA: 1e-05
GCAAAGTA: 0.155
AACGAGCT: -0.169
CCTCGGTC: -0.339
CTCCATAC: -0.0517
ACGCCTCC: -0.178
TATAGTGA: 0.319
TCCGGGCA: -0.307
ACACTTTA: 0.183
GCATGGGC: -0.212
CCACTAGC: -0.0693
GCAGATAC: 0.0205
ATGAACTG: 0.136
CAGGAATA: 0.165
ATCGCCTA: -0.124
GAGGGTCA: -0.272
ACAAGATG: 0.164
ACGGCCCT: -0.276
AGCTATAA: 0.3
CGCCCCAG: -0.328
CTTCTACA: 0.153
AGATACGG: -0.0284

Study 4 — method: RNA Bind-n-Seq; form: RNA; sample: in vitro; concentration: not given; relative to: input RNA pool; direction: higher = stronger binding; measurement: bound/input enrichment
Target: RING finger protein unkempt homolog, zinc fingers 1-6, GST-SBP tag (UNK, Homo sapiens, UniProt Q9C0B0, residues 30-357)
Setting: RNA with constant flanks, human and mouse sites, ends assumed
Shared flanks, not repeated: GGGAGUUCUACAGUCCGACGAUC … CAACAGAGGAUUGAGCAUCA
Construct (chain): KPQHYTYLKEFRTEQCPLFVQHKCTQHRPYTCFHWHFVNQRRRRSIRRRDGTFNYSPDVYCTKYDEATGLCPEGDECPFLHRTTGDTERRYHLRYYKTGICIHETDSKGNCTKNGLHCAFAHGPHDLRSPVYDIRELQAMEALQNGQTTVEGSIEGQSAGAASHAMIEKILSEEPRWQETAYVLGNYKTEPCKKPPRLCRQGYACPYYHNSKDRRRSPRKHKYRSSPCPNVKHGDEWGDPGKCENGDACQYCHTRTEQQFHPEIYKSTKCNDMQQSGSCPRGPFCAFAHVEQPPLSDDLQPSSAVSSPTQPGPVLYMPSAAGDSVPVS
GAACCAUAUAUCCUACCGUUCAUGUUUUACAAUGAUGUUAAGAAGCAGCAACAAAUGGCAGCACUUACAAAAGAAAAGGACCAAUUAUCUCAGUCUAUUGUUAUGUAUAAAAGUUUAUUU: 0.32 ratio
UGUAGAUUUAUCCUAAAUUUGCUGUAGCAGUGGGGAAGAGGGACGGAUAUUUUUAAUUGAUUAGUGUUUUUUUCCUCACAUUUGACAUGACUGAUAACAGAUAAUUAAAAAAAGAGAAUA: 0.465 ratio
CUUUAAAAGUUUAAUGAUACUUCUGAUGUUUCGGAACAGUCAUUUCACCUACUAUUUCUGAAUAUAUUUUGCAAAUUGAAUUGGAAUAGGAAUUGAUAAUAGCAGUCUUAAACAUUAGUA: 2.85 ratio
UGUAAGGGACUGGCAGCUCUGCCGCACUCAUGCCUGGAAAGGGCCAAGGAGAUCAAGAUCAAGUUGGGAAUUCUCCUCCAGAAGCCAGACUCUGCUGUUGACCUUGUCAUUCCAUACAAU: 0.0713 ratio
GAGGAGGUUCUGACUAAUAAGAAGACGACCUUCUUUGGUGGCAAUUCUAUCUCUAUGAUUGAUUACCUCAUCUGGCCCUGGUUUGAACGGCUGGAAGCAAUGAAGUUAAAUGAGUGUGUA: 0.264 ratio
AACAAUGCAUGUAAGUCUGACAUCAUGAUGUCCAUCCGGCAAAGAAGAGAAAUAAGAGCCACAGAAGUUUCUGAAGACUUUCCAGCCCAAGAAGAAAAUGUGAAGUUGGAAAAUAAAUUG: 0.173 ratio
CUCACGGCCCAGCAUGAGAACUUCAGGAAAAAGCAGAUUGAAGAGCUGAAGGGACAAGAAGUUAGUCCUAAAGUGUACUUCAUGAAGCAGACCAUUGGGAAUUCCUGUGGCACAAUCGGA: 0.115 ratio
AUUGUUGAAGCGAAUCCACUUUUAGAAGCAUUUGGAAAUGCAAAGACUGUUCGCAACAAUAAUAGCAGUCGAUUUGGAAAAUUUGUAGAAAUUCAUUUCAAUGAAAAGAGUUCGGUUGUU: 0.274 ratio

For quick reference, copied from above (study 2):
CGTATTAC: -0.192
CGGCCCTC: 0.0952
CGTTTATC: -0.0162
GGGCGAAC: 0.16
AATGGCTC: -0.0548
ACTGATCT: 0.113
GGATACGA: -0.0735
AATGGACA: 0.16
